Published values collected from several papers.
Each line is one published result; not all experiments were run side by side.
Organism: Staphylococcus aureus

SMILES | test | test system | conditions | MIC
CN[C@H](CC(C)C)C(=O)N[C@H]1C(=O)N[C@@H](CC(N)=O)C(=O)N[C@H]2C(=O)N[C@H]3C(=O)N[C@H](C(=O)N[C@H](C(=O)NCC(N)=O)c4cc(O)cc(O)c4-c4cc3ccc4O)[C@H](O)c3ccc(c(Cl)c3)Oc3cc2cc(c3O[C@@H]2O[C@H](CO)[C@@H](O)[C@H](O)[C@H]2O[C@H]2C[C@](C)(NCc3ccc(OCc4cn(CC(=O)N[C@H](C(=O)N[C@@H](CCN)C(=O)N[C@H]5CCNC(=O)[C@H]([C@@H](C)O)NC(=O)[C@H](CCN)NC(=O)[C@H](CCN)NC(=O)[C@H](CC(C)C)NC(=O)[C@@H](CC(C)C)NC(=O)[C@H](CCN)NC5=O)[C@@H](C)O)nn4)c(OC)c3)[C@H](O)[C@H](C)O2)Oc2ccc(cc2Cl)[C@H]1O | broth microdilution | MRSA USA300, cation-adjusted Mueller-Hinton broth | 20 to 24 h, 37 °C, 0.002% polysorbate 80 | 0.25 µg/mL
COc1c(NC(=O)c2ccc(NC(=O)[C@H](Cc3c[nH]nn3)NC(=O)c3ccc(NC(=O)/C(C)=C/c4ccc(O)cc4)cc3)cc2)ccc(C(=O)Nc2ccc(C(=O)O)cc2)c1O | broth microdilution | ciprofloxacin-sensitive |  | 2 µg/mL
CCCCCC[N+](C)(C)CCCCCCOc1cc(OCCCCCC[N+](C)(C)CCCCCC)cc(OCCCCCC[N+](C)(C)CCCCCC)c1.[Br-].[Br-].[Br-] |  | HA-MRSA ATCC 33591 |  | 2 µM
COc1ccc(NC(=O)COc2cccc(OCC(C)C)c2)cc1 | microbial growth, broth dilution | MB2865 |  | > 128 µg/mL
CC[C@H]1OC(=O)[C@H](C)[C@@H](OC(=O)Cc2cccc3ccccc23)[C@H](C)[C@@H](O[C@@H]2O[C@H](C)C[C@H](N(C)C)[C@H]2O)[C@](C)(OC)C[C@@H](C)C(=O)[C@H](C)[C@@H](O)[C@]1(C)O |  | ATCC 43300 MRSA |  | 32 µg/mL
CCC(CC)c1cc(CCN2CCCNCC2)nc(-c2ccccn2)n1 | microbial growth, broth dilution | ATCC29213 |  | > 16 µg/mL
CN[C@H](CC(C)C)C(=O)N[C@H]1C(=O)N[C@@H](CC(N)=O)C(=O)N[C@H]2C(=O)N[C@H]3C(=O)N[C@H](C(=O)N[C@H](C(=O)NCc4cn(CC(=O)N[C@H](C(=O)N[C@@H](CCN)C(=O)N[C@H]5CCNC(=O)[C@H]([C@@H](C)O)NC(=O)[C@H](CCN)NC(=O)[C@H](CCN)NC(=O)[C@H](CC(C)C)NC(=O)[C@@H](CC(C)C)NC(=O)[C@H](CCN)NC5=O)[C@@H](C)O)nn4)c4cc(O)cc(O)c4-c4cc3ccc4O)[C@H](O)c3ccc(c(Cl)c3)Oc3cc2cc(c3O[C@@H]2O[C@H](CO)[C@@H](O)[C@H](O)[C@H]2O[C@H]2C[C@](C)(N)[C@H](O)[C@H](C)O2)Oc2ccc(cc2Cl)[C@H]1O | broth microdilution | MSSA ATCC 29213, cation-adjusted Mueller-Hinton broth | 20 to 24 h, 37 °C, 0.002% polysorbate 80 | 0.25 µg/mL
COc1cc(C(=O)O)ccc1NC(=O)c1ccc(NC(=O)c2ccc(NC(=O)[C@H](Cc3c[nH]nn3)NC(=O)c3ccc(NC(=O)/C(C)=C/c4ccc(O)cc4)cc3)cc2)cc1 | broth microdilution | ciprofloxacin-sensitive |  | 32 µg/mL
CC[C@H]1OC(=O)[C@H](C)[C@@H](OC(=O)Cc2cccc(Cl)c2)[C@H](C)[C@@H](O[C@@H]2O[C@H](C)C[C@H](N(C)C)[C@H]2O)[C@](C)(OC)C[C@@H](C)C(=O)[C@H](C)[C@@H](O)[C@]1(C)O | microbial growth | BAA976 |  | 4 µg/mL
CC[C@H](C)[C@H](N)C1=N[C@H](C(=O)N[C@@H](CC(C)C)C(=O)N[C@H](CCC(=O)O)C(=O)N[C@H](C(=O)N[C@H]2CCCCNC(=O)[C@H](CC(N)=O)NC(=O)[C@@H](CC(=O)O)NC(=O)[C@H](Cc3c[nH]cn3)NC(=O)[C@@H](Cc3ccccc3)NC(=O)[C@H]([C@@H](C)CC)NC(=O)[C@@H](CCCN)NC2=O)[C@@H](C)CC)CS1 | broth microdilution | USA300 MRSA, LB medium | no added Zn2+ | 32 µg/mL
CCCCCCCCn1cc[n+](CCCCCCOc2cc(OCCCCCC[n+]3ccn(CCCCCCCC)c3)cc(OCCCCCC[n+]3ccn(CCCCCCCC)c3)c2)c1.[Br-].[Br-].[Br-] |  | CA-MRSA USA300-0114 |  | 1 µM
COc1nc(C(=O)Nc2ccc(C(=O)O)nc2OC)ccc1NC(=O)c1ccc(NC(=O)[C@H](Cc2c[nH]nn2)NC(=O)c2ccc(NC(=O)/C(C)=C/c3ccc(O)cc3)cc2)cc1 | broth microdilution | ciprofloxacin-resistant |  | 16 µg/mL
CCCCCCCCCCn1cc[n+](CCCCCCOc2cc(OCCCCCC[n+]3ccn(CCCCCCCCCC)c3)cc(OCCCCCC[n+]3ccn(CCCCCCCCCC)c3)c2)c1.[Br-].[Br-].[Br-] |  | HA-MRSA ATCC 33591 |  | 2 µM
CC1C=CC=CC(C)C2C=CC3CC(C)(O)C(Cl)C(C)C3C2C(=O)C(Cl)(Cl)C(=O)C(C)C(=O)O1 (stereo not drawn) |  | MRSA clinical isolate | OXA FA resistant | 0.1 µg/mL
CC[C@H]1OC(=O)[C@H](C)[C@@H](O[C@H]2C[C@@](C)(OC)[C@@H](O)[C@H](C)O2)[C@H](C)[C@@H](O[C@@H]2O[C@H](C)C[C@H](N(C)C)[C@H]2O)[C@](C)(OC)C[C@@H](C)C(=O)[C@H](C)[C@@H](O)[C@]1(C)O |  | DSM 20231 MSSA |  | 0.5 µg/mL
CCCCCC[N+](C)(C)CCCCCCCCCCOc1cc(OCCCCCCCCCC[N+](C)(C)CCCCCC)cc(OCCCCCCCCCC[N+](C)(C)CCCCCC)c1.[Br-].[Br-].[Br-] |  | SH1000 MSSA |  | 1 µM
CC[C@H]1OC(=O)[C@H](C)[C@@H](OC(=O)Cc2ccc(OC)cc2)[C@H](C)[C@@H](O[C@@H]2O[C@H](C)C[C@H](N(C)C)[C@H]2O)[C@](C)(OC)C[C@@H](C)C(=O)[C@H](C)[C@@H](O)[C@]1(C)O | microbial growth | BAA976 |  | 8 µg/mL

SMILES | test | test system | conditions | MIC
CCCCCCCC[N+](C)(C)CCCCOc1cc(OCCCC[N+](C)(C)CCCCCCCC)cc(OCCCC[N+](C)(C)CCCCCCCC)c1.[Br-].[Br-].[Br-] |  | SH1000 MSSA |  | 0.5 µM
COc1c(NC(=O)c2ccc(NC(=O)c3ccc(NC(=O)[C@H](Cc4c[nH]nn4)NC(=O)c4ccc(NC(=O)/C(C)=C/c5ccc(O)cc5)cc4)cc3)cc2)ccc(C(=O)O)c1O | broth microdilution | ciprofloxacin-resistant |  | 32 µg/mL
CCCCCCCCCCCC[N+](C)(C)CCCCCCCCCCOc1cc(OCCCCCCCCCC[N+](C)(C)CCCCCCCCCCCC)cc(OCCCCCCCCCC[N+](C)(C)CCCCCCCCCCCC)c1.[Br-].[Br-].[Br-] |  | HA-MRSA ATCC 33591 |  | > 250 µM
COc1c(C)c(OS(=O)(=O)c2ccccc2)c(C)c2c1C(=O)CC(c1ccccc1)O2 (stereo not drawn) | microbial growth, broth dilution | ATCC25923 |  | 5000 µg/mL
Cc1c(CN(C)C(=O)/C=C/c2cnc3c(c2)CC(CN)C(=O)N3)oc2ccccc12 (stereo not drawn) | microbial growth, broth dilution | ATCC29213 |  | 0.03 µg/mL
O=CCNCCOn1c(=O)n(OCCNCCO)c(=O)n(OCCNCCOn2c(=O)n(OCCNCCO)c(=O)n(OCCNCCO)c2=O)c1=O | microbial growth, broth dilution |  |  | 2 µg/mL
CCCCCCCC(=O)N[C@@H](CC(N)=O)C(=O)N[C@H]1CNC(=O)[C@H](c2ccc(O)c(Cl)c2)NC(=O)[C@@H](C)NC(=O)[C@H](CC(C)C)NC(=O)CNC(=O)[C@H](c2ccc(O)cc2)NC(=O)[C@@H]([C@H](C)O)NC(=O)[C@H](c2ccc(O)cc2)NC(=O)[C@@H](CCCN)NC(=O)[C@H](Cc2ccccc2)NC(=O)[C@H]([C@@H](C)O)NC(=O)[C@@H](c2ccc(O)cc2)NC(=O)[C@H](c2ccc(O)cc2)NC(=O)[C@@H]([C@H](C)O)NC(=O)[C@@H](CCCN)NC(=O)[C@@H](c2ccc(F)cc2)NC1=O |  | MSSA ATCC 29213 |  | > 16 µM
CC[C@H]1OC(=O)[C@H](C)[C@@H](OC(=O)Cc2ccccc2[N+](=O)[O-])[C@H](C)[C@@H](O[C@@H]2O[C@H](C)C[C@H](N(C)C)[C@H]2O)[C@](C)(OC)C[C@@H](C)C(=O)[C@H](C)[C@@H](O)[C@]1(C)O | microbial growth | BAA976 |  | 1 µg/mL
O=[N+]([O-])c1c(Br)c(Cl)c2cccnc2c1O | broth microdilution | ATCC 43300 MRSA |  | 8 µg/mL
CCCCCCCC[N+](C)(C)CCCCCCCCCCOc1cc(OCCCCCCCCCC[N+](C)(C)CCCCCCCC)cc(OCCCCCCCCCC[N+](C)(C)CCCCCCCC)c1.[Br-].[Br-].[Br-] |  | SH1000 MSSA |  | 2 µM
CCCCOC(=O)c1ccc(NC(=O)Nc2ccc(Cl)c(C(F)(F)F)c2)cc1 | microbial growth | NCTC8325 |  | 0.6 µM
CC[C@H]1OC(=O)[C@H](C)[C@@H](OC(=O)c2ccc(N)cc2)[C@H](C)[C@@H](O[C@@H]2O[C@H](C)C[C@H](N(C)C)[C@H]2O)[C@](C)(OC)C[C@@H](C)C(=O)[C@H](C)[C@@H](O)[C@]1(C)O | microbial growth | BAA976 |  | > 256 µg/mL
C=C1CN(S(=O)(=O)c2ccc([N+](=O)[O-])cc2)CC2Nc3c(F)cc(Br)cc3C12CCNS(=O)(=O)c1ccc(Cl)cc1 (stereo not drawn) |  | MRSA ATCC BAA-44 | compound alone | > 32 µg/mL
CCCCCCCCCC[N+](C)(C)CCCCCCCCOc1cc(OCCCCCCCC[N+](C)(C)CCCCCCCCCC)cc(OCCCCCCCC[N+](C)(C)CCCCCCCCCC)c1.[Br-].[Br-].[Br-] |  | HA-MRSA ATCC 33591 |  | 8 µM
CC[C@H]1OC(=O)[C@H](C)[C@@H](OC(=O)Cc2ccc3c(c2)OCO3)[C@H](C)[C@@H](O[C@@H]2O[C@H](C)C[C@H](N(C)C)[C@H]2O)[C@](C)(OC)C[C@@H](C)C(=O)[C@H](C)[C@@H](O)[C@]1(C)O |  | DSM 20231 MSSA |  | 0.5 µg/mL
COc1ccc(/N=N/C(=S)N2CCCC2)cc1 | microbial growth, broth dilution | ATCCBAA44 MRSA | 24 h | > 50 µM

For quick reference, copied from above:
SMILES | test | test system | conditions | MIC
CC[C@H]1OC(=O)[C@H](C)[C@@H](OC(=O)c2ccc(N)cc2)[C@H](C)[C@@H](O[C@@H]2O[C@H](C)C[C@H](N(C)C)[C@H]2O)[C@](C)(OC)C[C@@H](C)C(=O)[C@H](C)[C@@H](O)[C@]1(C)O | microbial growth | BAA976 |  | > 256 µg/mL
C=C1CN(S(=O)(=O)c2ccc([N+](=O)[O-])cc2)CC2Nc3c(F)cc(Br)cc3C12CCNS(=O)(=O)c1ccc(Cl)cc1 (stereo not drawn) |  | MRSA ATCC BAA-44 | compound alone | > 32 µg/mL
CCCCCCCCCC[N+](C)(C)CCCCCCCCOc1cc(OCCCCCCCC[N+](C)(C)CCCCCCCCCC)cc(OCCCCCCCC[N+](C)(C)CCCCCCCCCC)c1.[Br-].[Br-].[Br-] |  | HA-MRSA ATCC 33591 |  | 8 µM
CC[C@H]1OC(=O)[C@H](C)[C@@H](OC(=O)Cc2ccc3c(c2)OCO3)[C@H](C)[C@@H](O[C@@H]2O[C@H](C)C[C@H](N(C)C)[C@H]2O)[C@](C)(OC)C[C@@H](C)C(=O)[C@H](C)[C@@H](O)[C@]1(C)O |  | DSM 20231 MSSA |  | 0.5 µg/mL
